Measured values collected from several papers.
Compare with care: the assays were run in different laboratories. ± marks the error that the study gave.

CC[C@@H](C)[C@H]1NC(=O)[C@@H]([C@H](C)O)NC(=O)[C@@H](Cc2c[nH]cn2)NC(=O)CNC(=O)[C@@H](CCCNC(=N)N)NC(=O)CNC(=O)[C@@H](Cc2ccccc2)NC1=O  concentration (New Zealand white rabbit, female, vitreous; ocular, 50 µL eye drop, 24 h): ~0.0139 µM
CC(C)N(P(c1ccccc1)c1ccccc1)P(c1ccccc1)c1ccccc1.Cc1ccc(C(C)C)cc1.F[B-](F)(F)F.[Cl][Ru+]  absorption half-life (refers to: ruthenium; BALB/c nude mice, serum; ip, 5 mg/kg): 30 min
O=S1(=O)CC2CCCCC2CS1 (centres unmarked)  association constant (phase solubility; water; 25.0 °C, added: β-cyclodextrin): 4090 M⁻¹
CCCC[C@H](NC(=O)CNC(=O)CNC(=O)CN1CCN(CC(=O)O)CCN(CC(=O)O)CC1)C(=O)N[C@H]1CC(=O)NCCCC[C@@H](C(N)=O)NC(=O)[C@H](Cc2c[nH]c3ccccc23)NC(=O)[C@H](CCCNC(=N)N)NC(=O)[C@@H](Cc2ccccc2)NC(=O)[C@H](Cc2c[nH]cn2)NC1=O [gallium-67 labelled]  tumour to tissue ratio (female C57 mice, B16/F1 melanoma; intravenous, 0.037 MBq, 24 h; relative to: tumour over kidney): 2.9
COc1ccnc(C[S+]([O-])c2nc3cc(-n4cccc4)ccc3[nH]2)c1C (centres unmarked)  Vz/F (male Sprague Dawley rats, plasma; oral, 5 mg/kg of ilaprazole racemate): 42.7 ± 68.3 L/kg
Cc1ccc(OCC(=O)N(Cc2cccs2)c2ccn[nH]2)cc1  Tmax (female Sprague-Dawley rat, plasma; intravenous, 1 mg/kg, single dose): 1.8 min
COc1ccc2c(c1)C=C(C(=O)N1C[C@@H](C)O[C@@H](C)C1)Cn1c-2c(C2CCCCC2)c2ccc(C(=O)NS(=O)(=O)N(C)C)cc21  liver concentration (rat, liver; oral, 10 mg/kg, 4 h): 33 µM
CC(C)C[C@@H](NC(=O)[C@H](NC(=O)[C@H]1CCCN1)[C@H](C)O)C(=O)N[C@H](Cc1c[nH]cn1)C(=O)N[C@@H](C(=O)N[C@H](Cc1c[nH]cn1)C(=O)N[C@H](CC(N)=O)C(=O)N[C@H](CCCNC(=N)N)C(=O)N[C@H](CCCNC(=N)N)C(=O)N[C@H](CCCNC(=N)N)C(=O)N[C@H](CCCNC(=N)N)C(=O)N[C@H](CCCNC(=N)N)C(N)=O)[C@H](C)O  concentration (aged Beagle dogs, CSF; oral daily, 30 mg/kg, 1 h after dose, one month): 5 ng/mL
CCc1c2c(nc3ccc(O)cc13)-c1cc3c(c(=O)n1C2)COC(=O)[C@]3(O)CC  AUC(0-inf) (human patients, plasma; intravenous, 75 mg/m^2 of parent drug): 738 ng·h/mL
CC(=O)[CH](C(C)=O)[Pt-2]1([S+](C)C)[O]C(C)=CC(C)=[O+]1 (centres unmarked)  hindpaw heat sensitivity (thermal paw stimulator; rat; dose not given): no effect
Cc1ccc(-c2ccc(-c3cc4sccc4o3)cn2)nc1  radiative decay rate constant (TCSPC; CHCl3): 0.48 ns⁻¹
COc1cc(NC(C)=O)c2c(c1O)-c1c(OC)c(OC)cc3c1C(C2)N(C)CC3 (centres unmarked)  remaining compound (rat, plasma; 50 µg/mL, 40 d, -20 °C, long-term storage): 92.9 ± 9.5%
O=C(O)C1CN(Cc2ccc(-c3noc(-c4ccc(OCC[18F])c(C(F)(F)F)c4)n3)cc2)C1  tissue uptake (male Sprague-Dawley rat, brain; intravenous, 30 min): 0.018 ± 0.002 %ID/g
CC(C)(O)c1ncc([S@](N)(=O)=NC(=O)Nc2c3c(cc4c2CCC4)CCC3)s1  Cmax (healthy human, fasted; oral, 300 mg single dose, spray-dried dispersion): 25600 ng/mL
CC12CC(c3ccc(S(C)(=O)=O)cc3)C3=C4CCC(=O)C=C4CCC3C1CCC2(O)C(F)(F)C(F)(F)F (centres unmarked)  excreted amount in feces (human; oral, 5 mg, mean of six subjects; relative to: dose): 1.1%
COC(=O)C(c1ccccc1Cl)N1CCC(SCC(=O)c2cccc(OC)c2)C(=CC(=O)O)C1 (mixture of isomers)  storage stability time (feline plasma; room temperature): 1 weeks
NC[C@@H](C(=O)Nc1ccc(-c2cn[nH]c2)cc1)c1ccccc1  total eye irritation score (OECD 405 eye irritation; New Zealand White rabbit, eye; topical, 0.1%, 97 h (day 5); direction not given): 1
CC12CC3CC(C)(C1)CC(NC(=O)Nc1ccc(C(=O)N4CCCC(C(N)=O)C4)cc1)(C3)C2 (centres unmarked)  CL (Sprague Dawley rats, both sexes, plasma; oral, 10 mg/kg): 33600 mL/h
Cn1c(=O)oc2ccc(-c3ccc(CC(C#N)NC(=O)C4CNCCCO4)c(F)c3)cc21 (centres unmarked)  treatment-emergent adverse event incidence (refers to: alanine aminotransferase increased; human volunteers; oral): 11.1%
NCCCC(=O)OCC(=O)c1ccc(O)c(C(F)(F)F)c1  singlet lifetime (pump-probe transient absorption; 10% acetonitrile in water): 3.3 ps
C#CCN(CCCNC(=O)CCCCC[N+]1=C(/C=C/C2=C(Cl)C(=C/C=C3\N(CCCCCC(=O)[O-])c4ccccc4C3(C)C)/CCC2)C(C)(C)c2ccccc21)CCCOc1ccc(Cl)cc1Cl  concentration (processed mouse plasma; 0.01 µg/mL nominal, 4 h, in autosampler): 9.8 ± 1 ng/mL
O=C(c1cccc(N=Nc2ccc(OC3CC(N4CCCCC4)C3)cc2)c1)N1CCCC1 (centres unmarked)  cis isomer thermal half-life (Tris-HCl buffer, 1% DMSO-d6; 25 µM, pH 7.4, 20 ± 3 °C): 26 days
N=C(N)NCCC[C@@H]1NC(=O)[C@H](Cc2c[nH]c3ccccc23)NC(=O)[C@@H](CC2CCCCC2)NC(=O)[C@@H]2CCCN2C(=O)[C@@H](NC(=O)CCc2ccccc2)CCCNC1=O  absorption rate constant (C57BL/6J mice, brain; oral, 1 mg/kg, two-compartment model): 11.3 h⁻¹
[11CH3]c1ccc2nc(C3CCC3)n(-c3ccc4[nH]ncc4c3)c2n1  absorbed dose (extrapolated from mouse biodistribution; human male, total body): 2.9 µSv/MBq
CCOc1ccc(Cc2cc(C3OC(SC)C(O)C(O)C3OC3OC(C(=O)O)C(O)C(O)C3O)ccc2Cl)cc1 (centres unmarked)  AUC(tau) dose ratio (human, plasma; oral, 400 mg once daily, sotagliflozin, day 8; relative to: 200 mg dose): ~1.85 fold
Cc1cc2c(cc1C1(c3ncc(C(=O)O)cn3)CC1)C(C)(C)CCC2(C)C  blood triglycerides (Sprague-Dawley rat, male; oral, 100 mg/kg, 24 h, sesame oil vehicle): 158 ± 46.5 mg/dL
OCc1cn(Cc2ccc(-c3noc(-c4ccc(OCC[18F])c(C(F)(F)F)c4)n3)cc2)nn1  brain uptake (Lewis rats, female, striatum; intravenous, 5 min): 0.47 %ID/g
O=C([O-])CN1CCN(CC(=O)[O-])CCN(CC(=O)NCC2CCC(C(=O)NC(Cc3ccc4ccccc4c3)C(=O)NCCCCC(NC(=O)NC(CCC(=O)O)C(=O)O)C(=O)O)CC2)CCN(CC(=O)[O-])CC1.[44Sc+3] (centres unmarked)  intact complex (transchelation stability; 4 h, 37 °C, added: DTPA 10 mM): 96.7 ± 0.5%
Cc1nc(C)c(C=[N+]([O-])C(C)(C)C)nc1C  brain concentration (Sprague-Dawley rats both sexes, brain; oral, 45 mg/kg, 10 min): ~128 µM
O=C([O-])c1cccc(CN(CCN(Cc2cn(Cc3ccccc3)nn2)Cc2cccc(C(=O)[O-])n2)Cc2cn(Cc3ccccc3)nn2)n1.[64Cu+2]  transchelation to serum proteins (refers to: 64Cu; human serum; 20 h, 37 °C): < 2%
COc1ccc(-c2csc(N/N=C(\C)c3cc(O)cc(O)c3)n2)cc1  concentration after storage (LC-MS/MS; rat plasma; 3.75 ng/mL, 45 days, long-term storage at -20 °C): 3.74 ng/mL
CNc1cc(OC)c(Nc2nccc(-c3cn(C4CC4)c4ccccc34)n2)cc1NC(=O)CCSCC(NC(C)=O)C(=O)O (centres unmarked)  excreted amount (radio-HPLC, co-eluting peaks pooled; human, feces; 0 to 240 h, sample holds 81.99% dose; relative to: dose): 6.76%
COc1ccc(OC)c(NCc2ccc3nc(N)nc(N)c3c2Cl)c1  haemolysis (haemolysis; sheep; 25 µM, 2 h, pH 7.2): 6.9%
CC(C)[C@H](NC(=O)[C@@H]1CCCN1C(=O)[C@H](CCCNC(=N)N)NC(=O)[C@H](CS)NC(=O)[C@H](Cc1c[nH]c2ccccc12)NC(=O)[C@H](CCCNC(=N)N)NC(=O)[C@@H](Cc1ccccc1)NC(=O)[C@H](Cc1c[nH]cn1)NC(=O)[C@H](CCC(=O)O)NC(=O)[C@H](CS)NC(=O)[C@H](CS)NC(=O)[C@@H]1CC(=O)N[C@@H](CCCNC(=N)N)C(=O)NCC(=O)N[C@@H](CC(=O)O)C(=O)N[C@H](Cc2ccc(O)cc2)C(=O)N1)C(N)=O [technetium-99m labelled]  tissue uptake (C57 mouse, female, B16/F1 melanoma, liver; intravenous, 0.037 MBq, 0.5 h): 2.73 ± 0.75 %ID/g
C[Si](C)(C)C[C@H](CN)CC(=O)O  Tmax (male Sprague-Dawley rat, plasma; oral, 100 mg/kg, single dose): 30 min
O=C(Nc1nccs1)C(c1cc(F)ccc1O)N1Cc2ccccc2C1=O (centres unmarked)  CL/F (female FVB mouse, plasma; oral, 20 mg/kg, single dose): 633 mL/min/kg
CN(CCCN=Cc1ccccc1[O-])CCN(C)CCCN=Cc1ccccc1[O-].[67Ga+3]  tissue uptake ratio (rat; intravenous, 1 min; relative to: heart over lung): 2.13 ± 0.12
O=C(O)C1OC(OC2C(COS(=O)(=O)O)OC(OC3C(C(=O)O)OC(OC4C(COS(=O)(=O)O)OC(OC5C(C(=O)O)OC(OC6C(COS(=O)(=O)O)OC(OC7C(C(=O)O)OC(OC8C(COS(=O)(=O)O)OC(OC9C(C(=O)O)OC(OC%10C(COS(=O)(=O)O)OC(OC%11C(C(=O)O)OC(Oc%12ccc([N+](=O)[O-])cc%12)C(O)C%11O)C(NS(=O)(=O)O)C%10O)C(OS(=O)(=O)O)C9O)C(NS(=O)(=O)O)C8O)C(OS(=O)(=O)O)C7O)C(NS(=O)(=O)O)C6O)C(OS(=O)(=O)O)C5O)C(NS(=O)(=O)O)C4O)C(OS(=O)(=O)O)C3O)C(NS(=O)(=O)O)C2OS(=O)(=O)O)C(O)C(O)C1OC1OC(COS(=O)(=O)O)C(O)C(O)C1NS(=O)(=O)O (centres unmarked)  total bilirubin (rats, serum; intravenous, 3600 µg/kg/day for 7 days, day 8): 0.1 ± 0.01 mg/dL
COc1cc(N(C)CCN(C)C)c(NC(=O)CCSCC(N)C(=O)O)cc1Nc1nccc(-c2cn(C3CC3)c3ccccc23)n1 (centres unmarked)  excreted amount (human, urine and feces; 0 to 96 h urine, 0 to 240 h feces; relative to: dose): 1.89%
COc1cccc(C=NCCCN(C)CCN(C)CCCN=Cc2cccc(OC)c2[O-])c1[O-].[67Ga+3]  tissue uptake ratio (rat; intravenous, 1 min; relative to: heart over liver): 1.8 ± 0.4
C=C(C)C(=O)Nc1ccc(-c2c(-c3ccc(Oc4nccc(C)n4)cc3)c3c(N)ncnc3n2C)cc1  fraction unbound (cynomolgus monkey, plasma; 5 µM, 18 h): 0.0017

For quick reference, copied from above:
NC[C@@H](C(=O)Nc1ccc(-c2cn[nH]c2)cc1)c1ccccc1  total eye irritation score (OECD 405 eye irritation; New Zealand White rabbit, eye; topical, 0.1%, 97 h (day 5); direction not given): 1
CC12CC3CC(C)(C1)CC(NC(=O)Nc1ccc(C(=O)N4CCCC(C(N)=O)C4)cc1)(C3)C2 (centres unmarked)  CL (Sprague Dawley rats, both sexes, plasma; oral, 10 mg/kg): 33600 mL/h
Cn1c(=O)oc2ccc(-c3ccc(CC(C#N)NC(=O)C4CNCCCO4)c(F)c3)cc21 (centres unmarked)  treatment-emergent adverse event incidence (refers to: alanine aminotransferase increased; human volunteers; oral): 11.1%
NCCCC(=O)OCC(=O)c1ccc(O)c(C(F)(F)F)c1  singlet lifetime (pump-probe transient absorption; 10% acetonitrile in water): 3.3 ps
C#CCN(CCCNC(=O)CCCCC[N+]1=C(/C=C/C2=C(Cl)C(=C/C=C3\N(CCCCCC(=O)[O-])c4ccccc4C3(C)C)/CCC2)C(C)(C)c2ccccc21)CCCOc1ccc(Cl)cc1Cl  concentration (processed mouse plasma; 0.01 µg/mL nominal, 4 h, in autosampler): 9.8 ± 1 ng/mL
O=C(c1cccc(N=Nc2ccc(OC3CC(N4CCCCC4)C3)cc2)c1)N1CCCC1 (centres unmarked)  cis isomer thermal half-life (Tris-HCl buffer, 1% DMSO-d6; 25 µM, pH 7.4, 20 ± 3 °C): 26 days
